{"data": "Published values collected from several papers", "note": "Every numbered part comes from another study and shows a few of its results, in no order.", "UniProt Q13882, sequence (whole entry, looked up)": "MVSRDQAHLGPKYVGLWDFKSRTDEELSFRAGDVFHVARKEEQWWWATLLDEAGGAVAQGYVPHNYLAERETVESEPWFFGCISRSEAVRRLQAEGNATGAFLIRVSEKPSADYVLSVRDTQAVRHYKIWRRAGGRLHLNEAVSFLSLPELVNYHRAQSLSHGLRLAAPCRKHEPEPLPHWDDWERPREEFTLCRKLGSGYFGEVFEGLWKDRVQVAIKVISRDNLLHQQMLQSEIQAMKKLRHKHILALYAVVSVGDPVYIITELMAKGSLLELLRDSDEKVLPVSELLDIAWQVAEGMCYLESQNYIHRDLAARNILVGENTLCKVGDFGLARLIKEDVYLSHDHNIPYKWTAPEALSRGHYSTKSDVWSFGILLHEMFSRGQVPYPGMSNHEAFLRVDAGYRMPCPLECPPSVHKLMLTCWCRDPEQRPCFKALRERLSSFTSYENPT", "UniProt P42336, sequence (whole entry, unmodified, looked up)": "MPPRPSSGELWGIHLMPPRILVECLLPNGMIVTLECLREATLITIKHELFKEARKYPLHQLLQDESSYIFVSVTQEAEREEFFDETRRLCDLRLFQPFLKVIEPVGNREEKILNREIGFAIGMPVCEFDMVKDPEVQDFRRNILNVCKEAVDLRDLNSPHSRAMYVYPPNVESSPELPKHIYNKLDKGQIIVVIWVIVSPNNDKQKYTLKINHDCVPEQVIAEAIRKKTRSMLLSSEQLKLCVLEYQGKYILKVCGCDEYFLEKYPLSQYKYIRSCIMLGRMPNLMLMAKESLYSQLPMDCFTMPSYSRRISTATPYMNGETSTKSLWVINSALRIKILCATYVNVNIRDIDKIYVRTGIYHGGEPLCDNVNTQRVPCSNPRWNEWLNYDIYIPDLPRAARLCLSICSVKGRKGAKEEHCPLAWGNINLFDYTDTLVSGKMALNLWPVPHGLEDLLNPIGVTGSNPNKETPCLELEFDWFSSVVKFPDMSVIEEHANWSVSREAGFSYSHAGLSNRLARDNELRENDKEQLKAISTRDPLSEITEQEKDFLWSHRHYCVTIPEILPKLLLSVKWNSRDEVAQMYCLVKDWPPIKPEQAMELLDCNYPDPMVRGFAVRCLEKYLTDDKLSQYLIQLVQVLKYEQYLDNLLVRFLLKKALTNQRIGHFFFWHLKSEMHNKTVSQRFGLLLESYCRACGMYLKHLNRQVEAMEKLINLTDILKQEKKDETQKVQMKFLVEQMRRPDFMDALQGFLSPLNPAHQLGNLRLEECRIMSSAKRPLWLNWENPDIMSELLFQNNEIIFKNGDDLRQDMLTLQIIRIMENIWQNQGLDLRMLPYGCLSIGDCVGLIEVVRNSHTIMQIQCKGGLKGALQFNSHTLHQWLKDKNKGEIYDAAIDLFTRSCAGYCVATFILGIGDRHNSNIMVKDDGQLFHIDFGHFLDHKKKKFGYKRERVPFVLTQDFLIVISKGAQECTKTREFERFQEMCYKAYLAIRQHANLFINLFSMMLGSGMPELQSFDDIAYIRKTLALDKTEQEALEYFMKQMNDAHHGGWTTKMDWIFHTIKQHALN", "UniProt Q16288, sequence (whole entry, looked up)": "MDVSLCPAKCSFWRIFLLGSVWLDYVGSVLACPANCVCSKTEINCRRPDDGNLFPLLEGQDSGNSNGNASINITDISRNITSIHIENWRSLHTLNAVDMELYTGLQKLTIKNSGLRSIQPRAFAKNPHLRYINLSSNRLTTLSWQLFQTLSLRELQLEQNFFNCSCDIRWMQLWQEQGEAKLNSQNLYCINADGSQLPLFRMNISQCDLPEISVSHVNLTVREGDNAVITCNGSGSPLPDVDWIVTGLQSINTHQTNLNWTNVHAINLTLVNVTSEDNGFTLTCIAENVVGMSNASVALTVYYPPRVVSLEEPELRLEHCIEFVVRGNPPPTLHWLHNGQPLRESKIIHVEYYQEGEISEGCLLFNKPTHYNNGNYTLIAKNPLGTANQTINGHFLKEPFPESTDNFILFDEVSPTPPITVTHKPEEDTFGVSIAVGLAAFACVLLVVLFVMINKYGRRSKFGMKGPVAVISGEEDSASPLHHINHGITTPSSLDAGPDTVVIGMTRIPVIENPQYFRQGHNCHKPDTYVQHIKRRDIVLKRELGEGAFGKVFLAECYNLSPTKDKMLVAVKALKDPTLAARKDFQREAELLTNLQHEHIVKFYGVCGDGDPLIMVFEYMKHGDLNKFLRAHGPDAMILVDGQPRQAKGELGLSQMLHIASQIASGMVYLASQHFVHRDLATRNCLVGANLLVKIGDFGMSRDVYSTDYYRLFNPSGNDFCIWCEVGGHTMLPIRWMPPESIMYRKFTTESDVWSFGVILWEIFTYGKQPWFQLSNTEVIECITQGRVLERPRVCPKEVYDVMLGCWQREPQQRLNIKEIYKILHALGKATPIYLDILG", "UniProt Q9BYP7, sequence (whole entry, looked up)": "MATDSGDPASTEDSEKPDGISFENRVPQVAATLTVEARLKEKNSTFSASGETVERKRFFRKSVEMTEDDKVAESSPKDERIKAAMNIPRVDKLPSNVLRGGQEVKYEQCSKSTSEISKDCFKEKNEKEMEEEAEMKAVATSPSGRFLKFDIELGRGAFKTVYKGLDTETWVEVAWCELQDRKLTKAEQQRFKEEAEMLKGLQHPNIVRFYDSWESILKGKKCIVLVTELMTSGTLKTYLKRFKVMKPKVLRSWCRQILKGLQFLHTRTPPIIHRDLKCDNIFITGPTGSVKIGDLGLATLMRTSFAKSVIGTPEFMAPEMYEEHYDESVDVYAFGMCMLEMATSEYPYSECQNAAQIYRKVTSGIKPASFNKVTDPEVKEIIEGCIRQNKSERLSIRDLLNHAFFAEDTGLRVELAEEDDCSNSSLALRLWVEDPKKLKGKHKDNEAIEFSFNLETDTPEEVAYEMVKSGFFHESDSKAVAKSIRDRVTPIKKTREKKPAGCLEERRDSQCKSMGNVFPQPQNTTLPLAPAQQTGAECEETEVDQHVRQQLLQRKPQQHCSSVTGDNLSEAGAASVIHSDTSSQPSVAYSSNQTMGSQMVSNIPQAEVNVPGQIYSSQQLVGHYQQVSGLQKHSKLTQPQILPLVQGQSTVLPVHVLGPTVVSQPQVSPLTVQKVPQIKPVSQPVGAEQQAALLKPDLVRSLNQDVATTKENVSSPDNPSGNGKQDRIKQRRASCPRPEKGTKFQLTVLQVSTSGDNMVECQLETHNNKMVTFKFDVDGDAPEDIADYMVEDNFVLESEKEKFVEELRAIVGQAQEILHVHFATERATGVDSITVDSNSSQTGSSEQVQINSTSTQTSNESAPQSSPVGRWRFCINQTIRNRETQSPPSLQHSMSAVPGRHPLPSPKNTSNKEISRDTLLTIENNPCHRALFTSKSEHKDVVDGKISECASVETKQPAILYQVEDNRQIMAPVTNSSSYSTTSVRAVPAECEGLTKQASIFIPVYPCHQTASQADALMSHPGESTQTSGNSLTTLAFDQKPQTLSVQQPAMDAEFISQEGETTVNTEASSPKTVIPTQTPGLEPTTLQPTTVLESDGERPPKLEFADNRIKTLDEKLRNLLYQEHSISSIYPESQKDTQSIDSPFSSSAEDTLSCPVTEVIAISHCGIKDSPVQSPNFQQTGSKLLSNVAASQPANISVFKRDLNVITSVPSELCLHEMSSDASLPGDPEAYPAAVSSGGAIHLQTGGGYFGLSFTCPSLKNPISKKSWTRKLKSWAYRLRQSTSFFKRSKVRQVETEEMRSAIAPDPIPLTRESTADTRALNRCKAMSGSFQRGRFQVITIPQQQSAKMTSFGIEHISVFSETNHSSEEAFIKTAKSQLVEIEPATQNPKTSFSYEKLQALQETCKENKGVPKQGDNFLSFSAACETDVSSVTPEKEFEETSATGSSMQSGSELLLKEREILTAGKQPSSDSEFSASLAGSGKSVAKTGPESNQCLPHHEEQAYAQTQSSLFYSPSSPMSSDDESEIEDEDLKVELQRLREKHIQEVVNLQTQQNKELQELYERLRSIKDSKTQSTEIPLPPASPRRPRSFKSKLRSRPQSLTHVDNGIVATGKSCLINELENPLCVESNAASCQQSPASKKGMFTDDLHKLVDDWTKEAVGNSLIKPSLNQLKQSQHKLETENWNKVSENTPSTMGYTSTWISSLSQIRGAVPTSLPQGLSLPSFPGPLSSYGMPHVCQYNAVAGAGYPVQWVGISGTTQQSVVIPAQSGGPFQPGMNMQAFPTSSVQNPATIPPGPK", "UniProt Q9HAZ1, sequence (whole entry, looked up)": "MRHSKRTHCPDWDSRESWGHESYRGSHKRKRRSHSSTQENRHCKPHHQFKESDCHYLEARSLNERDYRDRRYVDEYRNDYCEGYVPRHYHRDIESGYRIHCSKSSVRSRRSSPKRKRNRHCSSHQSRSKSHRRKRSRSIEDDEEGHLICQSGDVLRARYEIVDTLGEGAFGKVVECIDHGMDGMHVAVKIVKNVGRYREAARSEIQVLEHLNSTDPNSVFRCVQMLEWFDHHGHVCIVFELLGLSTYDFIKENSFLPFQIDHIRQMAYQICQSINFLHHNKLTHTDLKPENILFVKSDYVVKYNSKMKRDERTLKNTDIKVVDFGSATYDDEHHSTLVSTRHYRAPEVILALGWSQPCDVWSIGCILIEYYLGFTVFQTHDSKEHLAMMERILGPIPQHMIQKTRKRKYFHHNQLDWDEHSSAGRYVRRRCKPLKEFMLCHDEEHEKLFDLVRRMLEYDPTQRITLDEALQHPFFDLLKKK"}
{"data": "Study 1", "SMILES": "CS(=O)(=O)N1CCCC(NC(=O)[C@H](CCC2CCCCC2)NC(=O)c2ccc(CNC(=O)c3cnc4ccccn34)cc2)C1 (stereo partly shown)", "read-out": "cell-free assay", "method": "competition with immobilised ligand", "concentration": "0.1 µM"}
{"target": "WNK3 (Homo sapiens, UniProt Q9BYP7)", "remaining binding": "85%"}
{"target": "RET (Homo sapiens, UniProt P07949, V804L)", "remaining binding": "98%"}
{"target": "PTK6 (Homo sapiens, UniProt Q13882)", "remaining binding": "81%"}
{"target": "PAK4 (Homo sapiens, UniProt O96013)", "remaining binding": "100%"}
{"target": "NTRK3 (Homo sapiens, UniProt Q16288)", "remaining binding": "88%"}
{"target": "PRKG2 (Homo sapiens, UniProt Q13237)", "remaining binding": "82%"}
{"target": "CLK4 (Homo sapiens, UniProt Q9HAZ1)", "remaining binding": "98%"}
{"target": "PIK3CA (Homo sapiens, UniProt P42336, E545A)", "remaining binding": "99%"}
{"data": "Study 2", "target": "Dual specificity protein kinase TTK (TTK, Homo sapiens, UniProt P33981)", "read-out": "enzyme activity", "action": "inhibitor", "concentration": "0.5 µM", "reference": "control", "Construct (P33981 1-857)": "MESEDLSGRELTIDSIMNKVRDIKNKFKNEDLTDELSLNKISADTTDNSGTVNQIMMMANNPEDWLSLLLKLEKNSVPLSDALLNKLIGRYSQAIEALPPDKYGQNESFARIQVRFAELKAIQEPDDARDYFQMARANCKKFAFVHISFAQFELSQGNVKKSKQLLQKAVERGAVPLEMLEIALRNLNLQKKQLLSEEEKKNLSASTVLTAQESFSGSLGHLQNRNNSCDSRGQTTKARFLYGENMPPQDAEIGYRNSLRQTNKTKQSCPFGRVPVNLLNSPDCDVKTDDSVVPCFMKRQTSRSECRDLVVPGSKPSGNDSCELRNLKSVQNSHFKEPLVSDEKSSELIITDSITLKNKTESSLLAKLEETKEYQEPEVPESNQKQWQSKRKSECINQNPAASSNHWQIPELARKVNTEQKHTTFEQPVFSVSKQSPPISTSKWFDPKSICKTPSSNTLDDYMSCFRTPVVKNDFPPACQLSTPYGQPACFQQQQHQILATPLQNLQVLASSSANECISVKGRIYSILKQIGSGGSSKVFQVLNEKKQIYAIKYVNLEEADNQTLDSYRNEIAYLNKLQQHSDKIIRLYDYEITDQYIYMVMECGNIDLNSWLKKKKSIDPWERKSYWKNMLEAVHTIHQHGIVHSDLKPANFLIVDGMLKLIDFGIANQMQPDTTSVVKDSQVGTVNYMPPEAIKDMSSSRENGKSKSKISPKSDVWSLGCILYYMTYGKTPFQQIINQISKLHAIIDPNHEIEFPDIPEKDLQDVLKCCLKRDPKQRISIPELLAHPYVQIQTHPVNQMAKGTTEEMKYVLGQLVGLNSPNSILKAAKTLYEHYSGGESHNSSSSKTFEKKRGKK"}
{"Structure (SMILES)": "c1ccc2c(-c3ccncc3)c[nH]c2c1", "remaining activity [%]": 112}
{"Structure (SMILES)": "O=C1NC(=O)c2c1c1c3ccccc3[nH]c1c1[nH]c3cc(Br)ccc3c21", "remaining activity [%]": 98.7}
{"Structure (SMILES)": "N#Cc1cnc2cnc(NCc3cccnc3)cc2c1Nc1ccc(F)c(Cl)c1", "remaining activity [%]": 99.1}
{"Structure (SMILES)": "CN1CCN(c2ccc3nc(-c4c(N)c5c(F)cccc5[nH]c4=O)[nH]c3c2)CC1", "remaining activity [%]": 102}
{"Structure (SMILES)": "O=C(c1cc2cc(O)ccc2[nH]1)c1cc2cc(O)ccc2[nH]1", "remaining activity [%]": 92.9}
{"Structure (SMILES)": "COc1ccc(COc2ccc(Cc3cnc(N)nc3N)cc2OC)cc1", "remaining activity [%]": 105}
{"Structure (SMILES)": "Cc1cc(Nc2cc(N3CCN(C)CC3)nc(Sc3ccc(NC(=O)C4CC4)cc3)n2)[nH]n1", "remaining activity [%]": 104}
{"data": "Study 3", "target": "Cyclic AMP-responsive element-binding protein 1, full length (CREB1, Homo sapiens, UniProt P16220, residues 1-327)", "method": "protein-binding microarray", "molecule type": "hairpin DNA", "medium": "in vitro", "concentration": "not given", "notes": "whole hairpin DNA, median over replicate spots", "reference": "not given", "direction": "higher = stronger binding", "UniProt P16220, sequence (whole entry, looked up)": "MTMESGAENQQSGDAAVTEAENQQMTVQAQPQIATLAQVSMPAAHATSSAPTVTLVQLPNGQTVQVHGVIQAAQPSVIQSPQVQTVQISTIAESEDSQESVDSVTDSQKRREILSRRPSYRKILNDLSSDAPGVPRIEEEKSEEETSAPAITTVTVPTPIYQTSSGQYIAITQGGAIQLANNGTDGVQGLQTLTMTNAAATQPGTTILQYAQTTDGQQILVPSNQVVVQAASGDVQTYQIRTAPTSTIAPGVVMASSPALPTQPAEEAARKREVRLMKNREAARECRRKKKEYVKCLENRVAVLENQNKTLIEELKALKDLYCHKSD"}
{"Strand": "GAGGCCCGCTGACGTCAGCCTCCTGGCTGACGTCAGCGGGCCTCACACTC (5mC at 37)", "median fluorescence": "14000 a.u."}
{"Strand": "GAGGCCGACGACCGCGTGCCTCCTGGCACGCGGTCGTCGGCCTCACACTC (5mC at 9 13 15 29 31 35)", "median fluorescence": "2790 a.u."}
{"Strand": "GAGGCCGACGCGGTCGTGCCTCCTGGCACGACCGCGTCGGCCTCACACTC (5mC at 9 11 15 29 33 35)", "median fluorescence": "2790 a.u."}
{"Strand": "GAGGCCGGCTGACGTCAGCCTCCTGGCTGACGTCAGCCGGCCTCACACTC (5mC at 13)", "median fluorescence": "5190 a.u."}
{"Strand": "GAGGCCGGATGACGTCGGCCTCCTGGCCGACGTCATCCGGCCTCACACTC", "median fluorescence": "10100 a.u."}
{"Strand": "GAGGCCGGCTGACGACAGCCTCCTGGCTGTCGTCAGCCGGCCTCACACTC", "median fluorescence": "3860 a.u."}
{"Strand": "GAGGCCGGGTGACGTCAGCCTCCTGGCTGACGTCACCCGGCCTCACACTC (5mC at 36)", "median fluorescence": "21400 a.u."}
{"Strand": "GAGGCCGACAACGTCGTGCCTCCTGGCACGACGTTGTCGGCCTCACACTC (5mC at 9 15 29)", "median fluorescence": "4130 a.u."}
{"data": "Study 4", "target": "Prothrombin, mature alpha-thrombin (F2, Homo sapiens, UniProt P00734)", "method": "aptamer microarray, sandwich", "molecule type": "DNA with 2'F-ANA", "medium": "in vitro", "concentration": "200 nM", "notes": "whole 15-mer aptamer, many near background", "added": "Cy3 exosite-II aptamer, 400 nM", "direction": "higher = stronger binding", "strand": "GGTTGGTGTGGTTGG"}
{"Modification": "2'F-ANA at 1 11", "mean fluorescence intensity [a.u.]": 170}
{"Modification": "2'F-ANA at 1 2 3 5 6 7 8 9 11 12 15", "mean fluorescence intensity [a.u.]": 98.5}
{"Modification": "2'F-ANA at 1 2 3 5 7 8 9 13", "mean fluorescence intensity [a.u.]": 78.2}
{"Modification": "2'F-ANA at 1 2 3 6 9 11 12 13 14 15", "mean fluorescence intensity [a.u.]": 74.8}
{"Modification": "2'F-ANA at 2 4 6 9 11 13 15", "mean fluorescence intensity [a.u.]": 122}
{"Modification": "2'F-ANA at 2 4 9 11 12 14", "mean fluorescence intensity [a.u.]": 121}
{"Modification": "2'F-ANA at 1 4 7 9 10", "mean fluorescence intensity [a.u.]": 51.7}
{"Modification": "2'F-ANA at 1 6 7 12 15", "mean fluorescence intensity [a.u.]": 336}
{"note": "A few entries again (study 3):"}
{"Strand": "GAGGCCGGCTGACGTCAGCCTCCTGGCTGACGTCAGCCGGCCTCACACTC (5mC at 13)", "median fluorescence": "5190 a.u."}
{"Strand": "GAGGCCGGATGACGTCGGCCTCCTGGCCGACGTCATCCGGCCTCACACTC", "median fluorescence": "10100 a.u."}
{"Strand": "GAGGCCGGCTGACGACAGCCTCCTGGCTGTCGTCAGCCGGCCTCACACTC", "median fluorescence": "3860 a.u."}
